Results gathered from unrelated publications.
Parts stem from different laboratories: compare values within a part only.

Sample 1
Target: Histone acetyltransferase KAT6A, both winged helices, GST fusion (KAT6A, Homo sapiens, UniProt Q92794, residues 1-181)
Method: protein binding microarray
Molecule type: double-stranded DNA, one strand shown
Medium: in vitro
Tested at: not given
Notes: 8-mer, flanks averaged, mean of 2 arrays, mostly near background
Reference: not given
Reading: higher = stronger binding
Endpoint: E-score
Residues (chain): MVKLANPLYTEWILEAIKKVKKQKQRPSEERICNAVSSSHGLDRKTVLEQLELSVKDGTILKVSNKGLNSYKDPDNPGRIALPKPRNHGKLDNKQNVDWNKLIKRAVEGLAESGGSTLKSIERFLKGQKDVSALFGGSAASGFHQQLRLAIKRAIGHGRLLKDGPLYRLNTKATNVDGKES
Strand = CCCCTTGA; result = -0.111
Strand = AAGATACT; result = -0.0479
Strand = ATCGTGTC; result = 0.217
Strand = AATACCAA; result = -0.0105
Strand = CTAGCAAC; result = 0.0623
Strand = AGACCTGC; result = -0.142
Strand = CGCTCAAC; result = 0.169
Strand = ACTGACCT; result = -0.231
Strand = AATGCCGA; result = 0.239
Strand = CGCGGATC; result = 0.294
Strand = AAGGAGAA; result = -0.158
Strand = ACACTAAA; result = -0.0323
Strand = AGAAATCA; result = -0.155
Strand = CAGGGACA; result = -0.126
Strand = GCTGATCA; result = 0.0382
Strand = TAGTAAGA; result = -0.088
Strand = GTCCTAAA; result = 0.0824
Strand = CTACCAAA; result = -0.0308
Strand = ATTGAACG; result = 0.0169
Strand = ACGCTTGA; result = 0.14
Strand = AACAAACA; result = -0.166
Strand = AATGTCCT; result = -0.0409
Strand = AAGCACTA; result = -0.188
Strand = ACTCTACC; result = -0.186
Strand = CAAAGGGA; result = -0.0843

Sample 2
Target: Prothrombin, mature alpha-thrombin (F2, Homo sapiens, UniProt P00734)
Method: aptamer microarray, sandwich
Molecule type: DNA with 2'F-ANA
Medium: in vitro
Tested at: 200 nM
Notes: whole 15-mer aptamer, many near background
With: Cy3 exosite-II aptamer, 400 nM
Reading: higher = stronger binding
Endpoint: mean fluorescence intensity
Strand: GGTTGGTGTGGTTGG
Modification = 2'F-ANA at 2 4 10 12 14 15; result = 68.7 a.u.
Modification = 2'F-ANA at 2 3 7 8 12 13 14; result = 522 a.u.
Modification = 2'F-ANA at 1 8 9 10; result = 53.7 a.u.
Modification = 2'F-ANA at 1 2 5 6 8 9; result = 66.8 a.u.
Modification = 2'F-ANA at 4 6 11 15; result = 189 a.u.
Modification = 2'F-ANA at 1 6 7 10; result = 61 a.u.
Modification = 2'F-ANA at 1 3 4 6 7 9 10 11 12 13; result = 65 a.u.
Modification = 2'F-ANA at 4 5 6 9 10 12; result = 50.8 a.u.
Modification = 2'F-ANA at 2 4 5 6 7 9 10 12 13 14; result = 46.7 a.u.
Modification = 2'F-ANA at 2 4 5 6 9 10 11 14 15; result = 48.5 a.u.
Modification = 2'F-ANA at 1 5 6 9 12 13 14 15; result = 46 a.u.
Modification = 2'F-ANA at 1 2 9 12 13 14 15; result = 64 a.u.
Modification = 2'F-ANA at 1 2 3 5 6 9 11 12 14; result = 45.7 a.u.
Modification = 2'F-ANA at 1 6 8 9 11 13 15; result = 130 a.u.
Modification = 2'F-ANA at 1 3 4 6 7 8 9 10 12 14 15; result = 57.5 a.u.
Modification = 2'F-ANA at 1 3 6 8 9 13; result = 218 a.u.
Modification = 2'F-ANA at 1 14 15; result = 59.2 a.u.
Modification = 2'F-ANA at 4 5 7 13 14 15; result = 49.6 a.u.
Modification = 2'F-ANA at 3 5 7 8 9 12 13 14; result = 63.9 a.u.
Modification = 2'F-ANA at 4 5 8 11; result = 61 a.u.
Modification = 2'F-ANA at 1 5 6 8 9 12 14 15; result = 49.7 a.u.
Modification = 2'F-ANA at 1 2 5 9 10 12; result = 49.7 a.u.
Modification = 2'F-ANA at 2 4 7 8 9 11 13; result = 226 a.u.
Modification = 2'F-ANA at 1 4 5 8 11 12 13; result = 67.4 a.u.
Modification = 2'F-ANA at 1 5 6 8 9 10 12 13 15; result = 48.3 a.u.

Sample 3
Target: Ras GTPase-activating protein-binding protein 1, C-terminal RGG region (G3BP1, Homo sapiens, UniProt Q13283)
UniProt Q13283, sequence (whole entry, looked up): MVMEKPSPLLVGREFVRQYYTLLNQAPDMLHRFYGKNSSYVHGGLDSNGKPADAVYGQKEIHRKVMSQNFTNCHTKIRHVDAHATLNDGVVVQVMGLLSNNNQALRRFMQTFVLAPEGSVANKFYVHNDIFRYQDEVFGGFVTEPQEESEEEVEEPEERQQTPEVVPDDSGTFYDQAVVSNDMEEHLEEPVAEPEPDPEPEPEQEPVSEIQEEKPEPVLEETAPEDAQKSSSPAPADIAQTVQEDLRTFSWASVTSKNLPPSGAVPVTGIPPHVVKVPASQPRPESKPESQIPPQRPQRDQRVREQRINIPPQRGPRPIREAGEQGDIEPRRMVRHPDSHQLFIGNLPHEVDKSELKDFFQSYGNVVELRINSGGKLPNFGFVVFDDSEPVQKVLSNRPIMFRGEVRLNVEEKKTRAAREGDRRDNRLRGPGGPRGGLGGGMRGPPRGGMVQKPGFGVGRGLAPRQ
Method: RNA Bind-n-Seq
Molecule type: RNA
Medium: in vitro
Tested at: 1 µM
Notes: whole 134-nt RNA, ends assumed
With: 150 mM KCl
Reference: input library
Reading: higher = stronger binding
Endpoint: log2 enrichment
Strand = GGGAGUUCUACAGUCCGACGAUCCUCAAGUCCUGUGCUACACAUCGUAUGUACCGAAUCGGGCCGGGGCCGGCCGGGAAAGUAUUAUGUUACGCCGUUCGGAUCUGCACUUCCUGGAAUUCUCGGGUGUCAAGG; result = -1.11
Strand = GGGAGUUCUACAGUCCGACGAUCACCAUGCAGGUGGGCAUCUUUGGGAAGUGGGGCAAGGGGGGGAUAGCGAGGGGGGUAACACUUUGGGAACAGGUGGUCCCAGGUCGUUUCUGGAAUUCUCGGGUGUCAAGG; result = 2.1
Strand = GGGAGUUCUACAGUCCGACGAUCUCAAGUCCUGUGCUACACAUCGUAUGUACCGAAUCGGUUUGGUGGAAAAAAAGGAAAGUAUUAUGUUACGCCGUUCGGAUCUGCACUUCCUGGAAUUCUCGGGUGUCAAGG; result = -1.23
Strand = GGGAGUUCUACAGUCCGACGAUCCCUGUGCUACACAUCGUAUGUACCGAAUCGGGAAAAAAAGGAAAAAAAGGGAAAAAAAGGGAAAGUAUUAUGUUACGCCGUUCGGAUCUGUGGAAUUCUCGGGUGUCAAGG; result = -1.9
Strand = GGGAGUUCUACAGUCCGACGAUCUGUGCUACACAUCGUAUGUACCGAAUCGGGAAAAAAAGGGAAAAAAAGGGGAAAAAAAGGGGAAAGUAUUAUGUUACGCCGUUCGGAUCUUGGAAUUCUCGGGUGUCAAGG; result = -0.587
Strand = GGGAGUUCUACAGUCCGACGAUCUUGUGGGAGGAUUUUGAGAUACUUAUUCUUUAUUUGAGCCAGUCUUGCAAGGUUAACUUCUCACUGGGCCUAGUGUGGUGCCCAGGUUUUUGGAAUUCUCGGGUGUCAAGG; result = -1.8
Strand = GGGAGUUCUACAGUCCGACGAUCCAAGUCCUGUGCUACACAUCGUAUGUACCGAAUCGGAAAGGGGAAAGGGGAAAGGAAAGUAUUAUGUUACGCCGUUCGGAUCUGCACUUCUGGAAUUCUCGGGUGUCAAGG; result = -1.12
Strand = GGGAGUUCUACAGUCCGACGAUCUUAGAUGAGGACCUUGAGAUUGAAUUGGUUGAGGAAGAGCCUCCAUUCCUGAGAGGGCACACUAAGCAAAGCAUGGACAUGAGCCCCAUUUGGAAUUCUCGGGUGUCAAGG; result = -0.888
Strand = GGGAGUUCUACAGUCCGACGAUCCACAGACAACACGCACCCACACAGACACAGAGGGAAGGGGUUGGGAUGGGGACAGGGUGCACAGCAGGGCGGAGUAGGACCCCAGCCCCUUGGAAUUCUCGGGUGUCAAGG; result = -0.782
Strand = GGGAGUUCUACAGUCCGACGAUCAGUCCUGUGCUACACAUCGUAUGUACCGAAUCGGUUUUUGGUUUUUUUGGAAAAAGGAAAGUAUUAUGUUACGCCGUUCGGAUCUGCACUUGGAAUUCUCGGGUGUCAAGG; result = -2.12

Sample 4
Target: Sal-like protein 4, full length isoform B (SALL4, Homo sapiens, UniProt Q9UJQ4-2, residues 1-616)
Method: universal PBM
Molecule type: double-stranded DNA, one strand shown
Medium: in vitro
Tested at: not given
Notes: 8-mer, flanks averaged, mean of replicates
Reading: higher = stronger binding
Endpoint: E-score
Strand = CTTGCTAC; result = -0.0847
Strand = ATCGAATC; result = -0.0742
Strand = ATGAGATG; result = -0.0198
Strand = AGTCAACA; result = 0.0947
Strand = CGGGATCA; result = -0.178
Strand = AGCACAAA; result = 0.108
Strand = ATCCACGG; result = -0.193
Strand = AACACGAG; result = 0.0571
Strand = AAAGTGGA; result = 0.0622
Strand = GATCTGAC; result = -0.0748
Strand = CCGGACAC; result = -0.311
Strand = ACTCGTTA; result = 0.0595
Strand = CATGGACC; result = -0.208
Strand = CAGAGTTC; result = -0.172
Strand = TAGTGCGA; result = -0.069
Strand = CTATCGCC; result = -0.153
Strand = AAACGCCG; result = -0.0473
Strand = CACGGAAC; result = 0.0654
